Measured values from different studies.
Each numbered part is a random draw from the data of one study; scales do not carry over between parts. Changes are numbered by the printed parent chain.

Study 1
Target: RING finger protein unkempt homolog, zinc fingers 1-6, GST-SBP tag (UNK, Homo sapiens, UniProt Q9C0B0, residues 30-357)
UniProt Q9C0B0, sequence (30-357, looked up): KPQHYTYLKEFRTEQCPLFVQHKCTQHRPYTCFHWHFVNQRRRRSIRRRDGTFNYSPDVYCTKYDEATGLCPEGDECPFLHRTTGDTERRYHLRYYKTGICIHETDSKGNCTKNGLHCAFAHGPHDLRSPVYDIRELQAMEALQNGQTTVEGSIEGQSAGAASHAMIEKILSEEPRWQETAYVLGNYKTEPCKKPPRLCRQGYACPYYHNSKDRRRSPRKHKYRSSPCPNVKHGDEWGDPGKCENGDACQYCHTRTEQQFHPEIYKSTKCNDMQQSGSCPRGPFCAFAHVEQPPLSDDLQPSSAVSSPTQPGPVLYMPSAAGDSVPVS
Method: RNA Bind-n-Seq
Form: RNA
Sample: in vitro
Tested at: not given
Setting: RNA with constant flanks, human and mouse sites, ends assumed
Baseline: input RNA pool
Reading: higher = stronger binding
Constant ends, left off below: GGGAGUUCUACAGUCCGACGAUC … CAACAGAGGAUUGAGCAUCA
With `ACAAUCAUGCCUACUUUUAUCUUCGAACACAUUAUUAAACGGAUGGCUCCCAGCAUUAUGAAAAGCCUGAUGGAUCACACCAUUCCUGAAGUUUAAACCCUUGUACAAUGCAUCACGGCU` the bound/input enrichment was 0.535 ratio.
With `AUAAUAAUGAUGGAACCUCUCCACCCUUUGGUUUACUCCGGAGUUCCUCAGUUGAGGAAAAAUCUUUAUCUCACAGAAAUUCAUUAGAUACAAACCUGACUUCCAUGCUUUUUCAGAACU` the bound/input enrichment was 0.709 ratio.
`UUUCAUAAGCUAAAUUGUAUGUAUAAAACAUUUGCAGUGUUUCAGACACUGUUGAACAAAAAUGUAAUUGGUAAGUAUGUAUCCAAACAGGCAUGGGGUUUCCUGAUACAUUAUGUGUUU` gave a bound/input enrichment of 0.341 ratio.
`GAAGAUGGAGAAGAUCAACCAAAGCAAGUUUAUGUAGACAAAUUGGCUGAAUUAAAAAGUUUAGGUCAACCCAUUAAGACACGGUUCCAGGAAUCUGAAGAAAGACCAAAAUUAUUUGAA` has a bound/input enrichment of 0.323 ratio.
`UGCUGUACUCUUGCUGAUGGCUGCUAGAUUUUAAUUUAUUUGUUUCCCUACUUGAUAAUAUUAGUGAUUCUGAUUUCAGUUUUUCAUUUGUUUUGCUUUUGUUUUUUUCCUCAUGUAACA` gave a bound/input enrichment of 17.5 ratio.
The bound/input enrichment of `CCUUUAGUGGGCAAAGAAACCUUCUGUGUUGGAGCUGCAAAAAACAAAGCUAUCAUACGUAUACUUUCUGGCAAAGGUUGUGGUUUUAGUUACACUCUGGAAAUUGAUGGGAAAAGCUUC` is reported as 0.442 ratio.
For `UUCUCCGUACUUUUCUCUGAAAGGAAUCUUGUCUUGUUAAACCCUAAAGAGAGUGUCCUUAAUAGCAAUCAGCACUUGUAAGCUUAUAUACUGGUGCAUUUGGUUUUCUGUUGGGUGAAU`, the bound/input enrichment was 0.471 ratio.
For `AUUUUAUUGGUGCCUUCUUUCAUCAUGCCUUUUAAAUCAAAGGGAUAUUGGUACAUGCUUUUAGAAGAAUUGUGUCAGUAUUACCGAAUUUUUGUUCCUAUACCAGUUUGGUUUCGGUAC`, the bound/input enrichment was 0.398 ratio.
With `AAAGAUCUACUGAGGCAAGGCAGCAAAUUUAGAAGAAAUGUAUCAACACUAUUAAUAGAGUUAGGAUUCCAAAUUAAAAAAAAAACUAAAAGAUUGUAUAUCAACAAAGCCAAUAUCUGG` the bound/input enrichment was 17.7 ratio.

Study 2
Target: PABPC1L2, full length, GST fusion (mouse, UniProt A0ABA7IW68)
Method: RNAcompete
Form: RNA
Sample: in vitro
Tested at: 20 nM
Setting: 7-mer, probes averaged, single round
Baseline: mean of 7-mers
Reading: higher = stronger binding
Construct (chain): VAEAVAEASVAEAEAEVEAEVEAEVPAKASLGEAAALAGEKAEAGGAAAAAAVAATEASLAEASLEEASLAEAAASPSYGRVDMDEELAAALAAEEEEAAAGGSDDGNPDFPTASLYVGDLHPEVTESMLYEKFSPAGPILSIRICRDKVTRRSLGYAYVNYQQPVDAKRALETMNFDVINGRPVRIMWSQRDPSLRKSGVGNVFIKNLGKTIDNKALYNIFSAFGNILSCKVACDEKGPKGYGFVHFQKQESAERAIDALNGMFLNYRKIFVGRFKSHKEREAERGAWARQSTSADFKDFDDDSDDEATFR
For `GGCGCCU`, the 7-mer Z-score was -0.336.
`AUAACCU` gave a 7-mer Z-score of -0.188.
With `CCUUUUG` the 7-mer Z-score was -0.191.
For `GCCACGA`, the 7-mer Z-score was -0.0663.
`CCACCAC` has a 7-mer Z-score of -0.166.
`UGAUAGA` has a 7-mer Z-score of -0.0373.
`AGCGGGA` has a 7-mer Z-score of 0.267.
For `GGGACGA`, the 7-mer Z-score was 0.372.
For `UUAGAUG`, the 7-mer Z-score was -0.2.
The 7-mer Z-score of `GGUAAAA` is reported as 2.89.
`CCCUUUA` has a 7-mer Z-score of 0.0805.
For `UUGGCUA`, the 7-mer Z-score was -0.184.
`CGAUAAG` has a 7-mer Z-score of -0.0627.
The 7-mer Z-score of `AGUAUCU` is reported as -0.142.
For `UCCAGUC`, the 7-mer Z-score was -0.298.
With `CACUCAU` the 7-mer Z-score was -0.171.
For `GUUGCUC`, the 7-mer Z-score was -0.443.

Study 3
Target: Ras GTPase-activating protein-binding protein 1, full length (G3BP1, Homo sapiens, UniProt Q13283)
UniProt Q13283, sequence (whole entry, looked up): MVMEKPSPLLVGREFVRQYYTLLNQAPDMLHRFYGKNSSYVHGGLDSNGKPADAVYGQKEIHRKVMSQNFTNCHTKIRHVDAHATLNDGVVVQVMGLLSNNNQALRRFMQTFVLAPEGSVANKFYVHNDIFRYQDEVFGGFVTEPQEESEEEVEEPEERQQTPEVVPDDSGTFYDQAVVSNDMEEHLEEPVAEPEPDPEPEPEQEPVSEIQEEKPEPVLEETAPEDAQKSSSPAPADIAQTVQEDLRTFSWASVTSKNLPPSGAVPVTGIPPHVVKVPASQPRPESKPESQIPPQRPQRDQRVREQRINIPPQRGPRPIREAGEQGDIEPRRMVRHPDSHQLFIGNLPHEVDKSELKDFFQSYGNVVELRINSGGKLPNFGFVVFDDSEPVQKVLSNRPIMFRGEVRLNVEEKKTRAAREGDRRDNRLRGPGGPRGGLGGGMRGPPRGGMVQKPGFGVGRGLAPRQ
Method: RNA Bind-n-Seq
Form: RNA
Sample: in vitro
Tested at: 200 nM
Setting: whole 134-nt RNA, ends assumed
Added: 150 mM KCl
Baseline: input library
Reading: higher = stronger binding
Constant ends, left off below: GGGAGUUCUACAGUCCGACGAUC … UGGAAUUCUCGGGUGUCAAGG
The log2 enrichment of `UUAGGGAUGUGGCCAUAGAAUUCUCUCAGGAGGAGUGGAAAUGCCUGGACCCUGCUCAGAGGAUCUUAUACAGGGACGUGAUGUUGGAGA` is reported as 0.622.
The log2 enrichment of `CACAGACAACACGCACCCACACAGACACAGAGGGAAGGGGUUGGGAUGGGGACAGGGUGCACAGCAGGGCGGGGUAGGACCCUAGCCCCU` is reported as 1.78.
`UCAAGUCCUGUGCUACACAUCGUAUGUACCGAAUCGGCCGGGGCCGGGCCGGGGAAAGUAUUAUGUUACGCCGUUCGGAUCUGCACUUCC` gave a log2 enrichment of -0.363.
With `UCCUGUGCUACACAUCGUAUGUACCGAAUCGGGUUUUUUGGUUUUUUGGGUUUUUUGGGAAAGUAUUAUGUUACGCCGUUCGGAUCUGCA` the log2 enrichment was -0.695.
`CACAGACAACACGCACCCACACAGACACAGAGGGAAGGGGUUGGGAUGGGGACAGGGUGCACAGCAGGGCGGGGUAGGACCCCAGCCGCU` gave a log2 enrichment of 1.85.
With `GCAGGAAGUAAAAACAAAUGGAAAUGCUUCGGAUAGUGGCAGGGGUGGGGGUUGCUAAGGAAAGGGUGGGAUGGAAGUGGGUAAAGAGUU` the log2 enrichment was 0.955.
`UGGGAGGUGGAUUUUGUUUAUUUUUUUAGCUCAUUUCCAGGGGUGGGAUUUUUUUUUUAAUAUGUGUCAUGAAUAAAGUUGUUUUUGAAA` gave a log2 enrichment of 0.385.

Study 4
Target: CCNF, cyclin fold, Cln2 fusion (human)
Method: yeast growth competition, sequencing
Sample: yeast
Setting: strong parent motif
Baseline: not given
Reading: higher = stronger binding
Parent: CABLES2 docking peptide (human); ICAKRSLCAAFSV
`S6A` — result for “normalised enrichment score”: 1.55.
`L7A`: “normalised enrichment score” 0.252.
For `R5A`, “normalised enrichment score” read 0.924.

Study 5
Target: RNA binding protein fox-1 homolog 2, RRM domain, GST-SBP tag (RBFOX2, Homo sapiens, UniProt O43251-10, residues 100-194)
Method: RNA Bind-n-Seq
Form: RNA
Sample: in vitro
Tested at: 365 nM
Setting: natural RNA segment, single round, ends assumed
Baseline: no-protein control
Reading: higher = stronger binding
Constant ends, left off below: GGGAGUUCUACAGUCCGACGAUC … UGGAAUUCUCGGGUGCCAA
Target sequence (chain): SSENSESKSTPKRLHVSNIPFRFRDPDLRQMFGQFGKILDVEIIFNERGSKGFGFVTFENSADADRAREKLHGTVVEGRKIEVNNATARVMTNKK
For `GCCCUGGCUGGCCUGGAACUCACUCUGUGGACCAGGCUGGUCUCCAACUCAGAUCCUCCUGCCUCUGCCUCCCAAGUGCUGGGAUUAAAGGUGUGAUCUACCACUGCCGG`, “RBNS enrichment (R)” read 0.296.
For `GGAGCAGAGCACACUCCCGGGAUUCAGGGACAUGGUCCUCACAGCUCGGAAGUAGCUCUAGUCCUGCGAGCAGGCACUUGGAACAGCAGUCUGUAAGCAGGAGUCAUUGC`, “RBNS enrichment (R)” read 0.296.
Under “RBNS enrichment (R)”, `CUCCAAGGACUCUUGUCAGCUGUGUUGGAAGCCAAAGCCAGCUUAGUGGGACUUCCGCGUCUCUCCCUAGUCUUAUCCCCUUUGGAUGAUGGCAGAAACUUCAUGAACCA` is recorded as 0.274.
Under “RBNS enrichment (R)”, `GUGUUACAAGGGAGAACUCAUUUGAGAUCAGUCUGUUGGCAUUGCAAUGAAGUGCUUUGUAUCAGGAAAGUGUACACUAUUGACCUUUUUUCCUGUUCACAAGCUGAGCC` is recorded as 3.88.
Under “RBNS enrichment (R)”, `GCAGUUGCCAUGAGCCAAACCCUAAGUUAAAUAUGUAUCCUACAUAAGAGCUAAUCUCACCACUACAUGCCCAUCUAUGGAAGAUCUAACAGAAGCUUAGGGAACUAAGC` is recorded as 0.322.
Under “RBNS enrichment (R)”, `GGCCUCCUCCAUCAGAUGCCUGGGCCUCCUCCAUCAGAUGUCUGGGCCUCCUCCAUCAGAUGUCUGGGCCUCCUCCAGCUGGUGCCUGGACAUUCACCGUUUAUACAUGG` is recorded as 0.306.

Study 6
Target: Histone acetyltransferase KAT6A, both winged helices, GST fusion (KAT6A, Homo sapiens, UniProt Q92794, residues 1-181)
Method: protein binding microarray
Form: double-stranded DNA, one strand shown
Sample: in vitro
Tested at: not given
Setting: 8-mer, flanks averaged, mean of 2 arrays, mostly near background
Baseline: not given
Reading: higher = stronger binding
Construct (chain): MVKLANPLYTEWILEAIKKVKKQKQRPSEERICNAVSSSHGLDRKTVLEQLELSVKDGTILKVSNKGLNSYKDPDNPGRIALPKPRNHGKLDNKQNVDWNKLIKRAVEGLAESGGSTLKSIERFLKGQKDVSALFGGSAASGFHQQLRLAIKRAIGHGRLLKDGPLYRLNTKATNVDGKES
`GAACCGCA` has an E-score of 0.156.
`AAATCACG` has an E-score of 0.109.
The E-score of `GGTCTTCA` is reported as -0.156.
For `AGCCCTAC`, the E-score was -0.0752.
For `GTGAACGA`, the E-score was -0.094.
With `TGCAAGAA` the E-score was -0.0494.
`AGAGATCT` gave an E-score of -0.168.
The E-score of `GGTGACAA` is reported as 0.0511.
For `AGTAAAGG`, the E-score was -0.0303.
With `AAGCAAGA` the E-score was -0.174.
`GTCCATTA` gave an E-score of -0.0746.
For `CCTCATGC`, the E-score was -0.155.
`AAACGCAT` has an E-score of 0.134.
The E-score of `ATAAACCG` is reported as 0.0459.
The E-score of `AATCTAAA` is reported as -0.184.
`ACGTAGTC` gave an E-score of -0.128.
`AAGACCGT` has an E-score of 0.135.
`ATCTAGGC` gave an E-score of -0.0711.
`ATTCGGTG` gave an E-score of -0.135.
With `ATATTGCG` the E-score was 0.16.
With `CGTATGAC` the E-score was 0.121.
`GGTATCAC` gave an E-score of -0.0815.
`AACACCAA` has an E-score of -0.284.

Study 7
Target: Sal-like protein 4, full length isoform A (SALL4, Homo sapiens, UniProt Q9UJQ4, residues 1-1053)
UniProt Q9UJQ4, sequence (whole entry, looked up): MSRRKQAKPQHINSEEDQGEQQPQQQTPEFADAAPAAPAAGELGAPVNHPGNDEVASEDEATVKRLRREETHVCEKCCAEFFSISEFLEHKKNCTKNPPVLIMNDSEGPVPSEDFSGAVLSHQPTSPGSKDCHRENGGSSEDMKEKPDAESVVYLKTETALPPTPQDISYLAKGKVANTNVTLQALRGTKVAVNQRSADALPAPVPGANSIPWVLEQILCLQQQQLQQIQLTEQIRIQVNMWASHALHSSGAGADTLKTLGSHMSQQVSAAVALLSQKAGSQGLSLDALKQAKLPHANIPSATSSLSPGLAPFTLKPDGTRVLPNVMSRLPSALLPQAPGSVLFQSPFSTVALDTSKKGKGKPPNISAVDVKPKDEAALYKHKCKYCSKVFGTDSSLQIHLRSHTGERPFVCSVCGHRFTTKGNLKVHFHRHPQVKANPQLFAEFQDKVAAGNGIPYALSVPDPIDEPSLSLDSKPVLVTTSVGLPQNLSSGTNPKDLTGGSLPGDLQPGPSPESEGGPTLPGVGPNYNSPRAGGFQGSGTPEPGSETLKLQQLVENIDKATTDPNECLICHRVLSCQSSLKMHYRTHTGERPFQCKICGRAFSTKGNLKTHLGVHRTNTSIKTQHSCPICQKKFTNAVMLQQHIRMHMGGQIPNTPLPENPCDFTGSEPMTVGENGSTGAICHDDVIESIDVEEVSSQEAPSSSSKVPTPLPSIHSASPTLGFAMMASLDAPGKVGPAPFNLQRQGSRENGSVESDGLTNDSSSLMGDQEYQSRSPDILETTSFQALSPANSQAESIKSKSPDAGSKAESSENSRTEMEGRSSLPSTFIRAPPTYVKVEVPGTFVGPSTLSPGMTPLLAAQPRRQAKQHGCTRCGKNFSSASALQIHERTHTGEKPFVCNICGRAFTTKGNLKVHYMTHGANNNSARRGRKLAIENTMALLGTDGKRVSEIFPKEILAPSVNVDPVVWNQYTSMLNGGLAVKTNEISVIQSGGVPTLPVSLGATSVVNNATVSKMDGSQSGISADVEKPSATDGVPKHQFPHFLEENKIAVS
Method: universal PBM
Form: double-stranded DNA, one strand shown
Sample: in vitro
Tested at: 600 nM
Setting: 8-mer, flanks averaged, mean of replicates
Reading: higher = stronger binding
`ACGTATAC` has an E-score of 0.166.
For `AACTGTCG`, the E-score was 0.0311.
For `CCATGCTC`, the E-score was -0.215.
`CGATTCAC` has an E-score of 0.0514.
For `TACACACA`, the E-score was 0.198.
`CGCCAGTA` gave an E-score of -0.216.
With `CATCGTTC` the E-score was -0.146.
`GATCTAGA` has an E-score of 0.00874.
The E-score of `ATTGACTG` is reported as 0.0366.
With `ATTACCTG` the E-score was 0.19.
`AAAAGGGC` has an E-score of -0.134.
`AGTCTCTC` has an E-score of -0.137.
`CAACACGA` gave an E-score of -0.0339.

For quick reference, copied from above (study 2):
For `GGCGCCU`, the 7-mer Z-score was -0.336.
The 7-mer Z-score of `AGUAUCU` is reported as -0.142.
The 7-mer Z-score of `GGUAAAA` is reported as 2.89.
`CCCUUUA` has a 7-mer Z-score of 0.0805.
`AGCGGGA` has a 7-mer Z-score of 0.267.
`AUAACCU` gave a 7-mer Z-score of -0.188.
For `UUAGAUG`, the 7-mer Z-score was -0.2.
`CGAUAAG` has a 7-mer Z-score of -0.0627.
With `CACUCAU` the 7-mer Z-score was -0.171.
`UGAUAGA` has a 7-mer Z-score of -0.0373.
